Measured values from different studies.
Protocols differ between the studies behind these lines. Values joined by “and” are separate records of one study, mostly repeats; a detail may differ. ± gives the spread as reported.

SMILES	tested on	test	test system	conditions	how to read	endpoint	result
CC[C@H](C)[C@H](NC(=O)[C@H](CCCCN)NC(=O)[C@@H](NC(=O)[C@H](CS)NC(=O)[C@H](CCCNC(=N)N)NC(=O)[C@H](CCCNC(=N)N)NC(=O)[C@H](CC(N)=O)NC(=O)[C@H](CCCNC(=N)N)NC(=O)[C@H](CS)NC(=O)[C@@H](NC(=O)[C@H](CO)NC(=O)[C@@H](NC(=O)[C@H](CS)NC(=O)[C@H](CCCCN)NC(=O)[C@@H](N)CCCNC(=N)N)[C@@H](C)CC)C(C)C)[C@@H](C)CC)C(=O)N[C@@H](CS)C(=O)N[C@@H](CCCNC(=N)N)C(=O)O		LC/MS	PBS	0.1 mg/mL	reference: LC peak area	two-disulfide form	37%
Nc1nc(SCCCN2CCCCC2)nc2sc3c(c12)CCC(c1ccccc1)C3 (stereo not drawn)			mouse liver microsomes	30 min		metabolized compound	47 ± 25%
CN[C@](C)(C[18F])C(=O)O	SK-OV-3 tumour model		host not given, tumour	15 min, tumour-bearing		tracer uptake	8.5 %ID/g
COc1ccc(-n2cc(C(=O)N3C[C@]4(OC(=O)c5ccccc5NC(C)=O)CC[C@H](OC)[C@@]56[C@@H]4C[C@@H]([C@@H]35)[C@@]3(O)C[C@H](OC)[C@H]4C[C@@H]6[C@]3(O)[C@H]4OC)nn2)cc1			Sprague-Dawley rat, plasma	intravenous, 2 mg/kg		MRT(0-inf)	29 min
O=C1CC(=O)N(c2ccccc2)c2cc(Cl)ccc2N1			129X1/SvJ mice, whole blood	oral, 100 mg/kg, 2 h		blood concentration	20.6 µM
CCC(=O)N(C)c1ccc(Cl)c(Cl)c1	Salmonella typhimurium	Ames test	TA98	0.50 mg/plate, with rat liver S9		revertants	25 ± 9.5 revertants/plate
COc1cc(C(=O)NCCOCCOCCOCCNC(=O)c2ccc([18F])nc2)ccc1NC(=O)C1NC(CC(C)(C)C)C(C#N)(c2ccc(Cl)cc2F)C1c1cccc(Cl)c1F (stereo not drawn)	SJSA-1 tumour model		host not given, brain	2 h, tumour-bearing		tracer uptake	0.19 %ID/g
CC(c1ccc(Cl)cc1F)N1CCCC(n2c(=O)[nH]c3cc(Cl)c(Cl)cc32)CC1 (stereo not drawn)			male C57BL/6 mouse, brain	intraperitoneal, 3 mg/kg, 1 h		concentration	0.493 µM
CN(C)CC1CCCCC1(O)c1cccc(O)c1 (stereo not drawn)			Caco-2	10 µM, 3 h, pH 7.4		efflux ratio	1.1
CC(C)C1=C(OC(=O)Cc2ccccc2)C(=O)C2=C(C=C[C@H]3C(C)(C)CCC[C@]23C)C1=O			Artemia salina, artificial seawater	100 ppm, 24 h		mortality	32.4%
O=C(Cc1cccs1)N[C@@H]1C(=O)N2C(C(=O)O)=C(CSc3cccc[n+]3[O-])CS[C@H]12			mouse plasma	37 °C		plasma stability	stable
CC(C)(C)C1CCc2c(sc3nc(SCCN4CCCC4)nc(N)c23)C1 (stereo not drawn)			human liver microsomes	30 min		metabolized compound	< 25% and 23%
CC[C@H](C)[C@H](NC(=O)[C@@H](NC(=O)[C@H](CC(=O)O)NC(C)=O)[C@@H](C)O)C(=O)N[C@@H](CCCNC(=N)N)C(=O)N[C@@H](CC(C)C)C(=O)N[C@@H](CC(C)C)C(=O)N[C@@H](Cc1ccccc1)C(=O)N[C@@H](CCC(N)=O)C(=O)N[C@@H](CC(C)C)C(=O)N[C@@H](CCSC)C(=O)N[C@@H](CCCNC(=N)N)C(=O)N1CCC[C@H]1C(=O)N1CCC[C@H]1C(=O)N[C@@H](CC(N)=O)C(=O)N[C@@H](CCSC)C(=O)N[C@H](C(=O)N1CCC[C@H]1C(=O)N[C@@H](C)C(=O)N[C@H](C(=O)N[C@@H](CC(N)=O)C(=O)N[C@@H](C)C(N)=O)C(C)C)[C@@H](C)O		item: HA-15 tetramer	antigen-experienced tetramer+ CD4 T cells, healthy adults, HLA-DRB1*0101	dose not given		α4β7− CCR9+ cells	0%
C[C@@](O)(C(F)F)[C@H](NC(=O)c1ccc(C#CC#CC2CC2)cc1)C(=O)NO			CD-1 mouse	oral, 40 mg/kg, fasted	reference: AUC oral over AUC IV	oral bioavailability	~73% and 73%
CC1CCc2c(sc3nc(SCCCN4CCCCC4)nc(N)c23)C1 (stereo not drawn)			mouse liver microsomes	30 min		metabolized compound	99%

Some of these lines once more:
SMILES	tested on	test	test system	conditions	how to read	endpoint	result
Nc1nc(SCCCN2CCCCC2)nc2sc3c(c12)CCC(c1ccccc1)C3 (stereo not drawn)			mouse liver microsomes	30 min		metabolized compound	47 ± 25%
